Published values pooled from the literature.
Organism: Streptococcus pneumoniae

SMILES	method	strain	medium	time	temperature	notes	MIC
O=C(CCCCC1CCCCC1)NP(=O)(O)O							200 µg/mL
Cc1ccc2[nH]c3c(c2c1)CCCC3NCCc1ccccc1Br (stereo not shown)		T4				C+Y medium	1.3 µg/mL
CC(C)C[C@@H](NC(=O)[C@H](C)NC(=O)CNC(=O)[C@@H](NC=O)C(C)C)C(=O)N[C@@H](C)C(=O)N[C@@H](C(=O)N[C@H](C(=O)N[C@@H](C(=O)N[C@@H](Cc1c[nH]c2ccccc12)C(=O)N[C@H](CC(C)C)C(=O)N[C@@H](Cc1ccc2[nH]ccc2c1)C(=O)N[C@H](CC(C)C)C(=O)N[C@@H](Cc1c[nH]c2ccccc12)C(=O)N[C@H](CC(C)C)C(=O)N[C@@H](Cc1c[nH]c2ccccc12)C(=O)NCCO)C(C)C)C(C)C)C(C)C	broth microdilution	NBRC 102642					4.2 nM
c1ccc(CCOC2CCCc3c2[nH]c2ccccc32)cc1 (stereo not shown)	broth microdilution	TIGR4					> 29 µg/mL
CCCCCCCCCC(=O)N[C@@H](Cc1c[nH]c2ccccc12)C(=O)N[C@H](CC(N)=O)C(=O)N[C@@H](CC(=O)O)C(=O)N[C@@H]1C(=O)NCC(=O)N[C@@H](CCCN)C(=O)N[C@@H](CC(=O)O)C(=O)N[C@H](C)C(=O)N[C@@H](CC(=O)O)C(=O)NCC(=O)N[C@H](CO)C(=O)N[C@@H]([C@H](C)CC(=O)O)C(=O)N[C@@H](CC(=O)c2ccccc2N)C(=O)O[C@@H]1C	broth microdilution	ATCC 49619, penicillin intermediate		overnight	37 °C		32 µg/mL
COc1ccc(OS(=O)(=O)NC(=O)CCCCc2ccccc2)cc1							200 µg/mL
CC(C)C[C@@H](NC(=O)[C@H](C)NC(=O)CNC(=O)[C@@H](NC=O)C(C)C)C(=O)N[C@@H](C)C(=O)N[C@@H](C(=O)N[C@H](C(=O)N[C@@H](C(=O)N[C@@H](Cc1c[nH]c2ccccc12)C(=O)N[C@H](CC(C)C)C(=O)N[C@@H](Cc1ccc2[nH]ccc2c1)C(=O)N[C@H](CC(C)C)C(=O)N[C@@H](Cc1c[nH]c2ccccc12)C(=O)N[C@@H](C(=O)N[C@@H](Cc1c[nH]c2ccccc12)C(=O)NCCO)C(C)C)[C@H](C)O)C(C)C)C(C)C	broth microdilution	NBRC 102642					17 nM
O=C(CCCCCCCCCCOc1ccccc1)CP(=O)(O)O							50 µg/mL
CC(C)C[C@@H](NC(=O)[C@H](C)NC(=O)CNC(=O)[C@@H](NC=O)C(C)C)C(=O)N[C@@H](C)C(=O)N[C@@H](C(=O)N[C@H](C(=O)N[C@@H](C(=O)N[C@@H](Cc1c[nH]c2ccccc12)C(=O)N[C@H](CC(C)C)C(=O)N[C@@H](Cc1cccc2cc[nH]c12)C(=O)N[C@H](CC(C)C)C(=O)N[C@@H](Cc1c[nH]c2ccccc12)C(=O)N[C@H](CC(C)C)C(=O)N[C@@H](Cc1c[nH]c2ccccc12)C(=O)NCCO)C(C)C)C(C)C)C(C)C	broth microdilution	NBRC 102642					33 nM
CN[C@H](CC(C)C)C(=O)N[C@H]1C(=O)N[C@@H](CC(N)=O)C(=O)N[C@H]2C(=O)N[C@H]3C(=O)N[C@H](C(=O)N[C@H](C(=O)O)c4cc(O)cc(O)c4-c4cc3ccc4O)[C@H](O)c3ccc(c(Cl)c3)Oc3cc2cc(c3O[C@@H]2O[C@H](CO)[C@@H](O)[C@H](O)[C@H]2O[C@H]2C[C@](C)(N)[C@H](O)[C@H](C)O2)Oc2ccc(cc2Cl)[C@H]1O	broth microdilution	ATCC 49619, penicillin intermediate		overnight	37 °C		< 1 µg/mL
CN[C@H](CC(C)C)C(=O)N[C@H]1C(=O)N[C@@H](CC(N)=O)C(=O)N[C@H]2C(=O)N[C@H]3C(=O)N[C@H](C(=O)N[C@H](C(=O)O)c4cc(O)cc(O)c4-c4cc3ccc4O)[C@H](O)c3ccc(c(Cl)c3)Oc3cc2cc(c3O[C@@H]2O[C@H](CO)[C@@H](O)[C@H](O)[C@H]2O[C@H]2C[C@](C)(N)[C@H](O)[C@H](C)O2)Oc2ccc(cc2Cl)[C@H]1O		penicillin-intermediate					0.25 µg/mL
Cc1ccc2[nH]c3c(c2c1)CCCC3NCCc1ccc(Br)cc1 (stereo not shown)	broth microdilution	serotype 19A 700678	supplemented C+Y medium				4.8 µg/mL
CCCCCCCCCCCCCCCC(=O)CP(=O)(O)O							200 µg/mL
